Results of several laboratories.
Lines come from different studies, so protocols differ. Values joined by “and” are separate records of one study, mostly repeats; a detail may differ. ± gives the spread as reported.
sfp: sfp (Bacillus subtilis, UniProt P39135)
UniProt P39135, sequence (whole entry, looked up): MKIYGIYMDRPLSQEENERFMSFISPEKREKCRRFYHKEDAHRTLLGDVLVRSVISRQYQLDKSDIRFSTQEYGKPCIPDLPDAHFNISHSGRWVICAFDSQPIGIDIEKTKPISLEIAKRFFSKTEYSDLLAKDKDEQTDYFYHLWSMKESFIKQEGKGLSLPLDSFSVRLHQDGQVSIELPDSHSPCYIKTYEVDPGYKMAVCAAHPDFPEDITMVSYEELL
UniProt Q9Y6E0, sequence (whole entry, looked up): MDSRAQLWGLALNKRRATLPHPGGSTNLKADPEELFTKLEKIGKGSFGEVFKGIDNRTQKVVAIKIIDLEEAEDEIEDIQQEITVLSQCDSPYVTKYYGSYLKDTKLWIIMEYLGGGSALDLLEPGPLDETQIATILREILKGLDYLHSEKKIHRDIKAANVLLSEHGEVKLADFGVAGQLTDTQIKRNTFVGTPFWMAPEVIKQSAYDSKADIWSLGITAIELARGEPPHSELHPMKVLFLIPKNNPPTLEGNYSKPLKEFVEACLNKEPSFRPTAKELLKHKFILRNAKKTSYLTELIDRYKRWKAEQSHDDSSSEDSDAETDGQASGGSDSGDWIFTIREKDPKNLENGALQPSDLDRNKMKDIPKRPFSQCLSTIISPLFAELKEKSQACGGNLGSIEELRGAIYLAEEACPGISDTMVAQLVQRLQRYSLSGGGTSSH
UniProt P19784, sequence (whole entry, looked up): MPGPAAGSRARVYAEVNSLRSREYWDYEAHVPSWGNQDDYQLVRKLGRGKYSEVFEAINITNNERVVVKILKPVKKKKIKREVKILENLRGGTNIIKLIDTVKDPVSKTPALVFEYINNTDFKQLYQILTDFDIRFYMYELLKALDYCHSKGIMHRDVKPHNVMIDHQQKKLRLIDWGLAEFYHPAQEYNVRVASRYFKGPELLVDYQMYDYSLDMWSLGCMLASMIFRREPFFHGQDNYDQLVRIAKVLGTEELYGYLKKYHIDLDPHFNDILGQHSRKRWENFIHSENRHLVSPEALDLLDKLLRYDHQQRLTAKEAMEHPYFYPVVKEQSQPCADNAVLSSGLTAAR
UniProt P17787, sequence (whole entry, looked up): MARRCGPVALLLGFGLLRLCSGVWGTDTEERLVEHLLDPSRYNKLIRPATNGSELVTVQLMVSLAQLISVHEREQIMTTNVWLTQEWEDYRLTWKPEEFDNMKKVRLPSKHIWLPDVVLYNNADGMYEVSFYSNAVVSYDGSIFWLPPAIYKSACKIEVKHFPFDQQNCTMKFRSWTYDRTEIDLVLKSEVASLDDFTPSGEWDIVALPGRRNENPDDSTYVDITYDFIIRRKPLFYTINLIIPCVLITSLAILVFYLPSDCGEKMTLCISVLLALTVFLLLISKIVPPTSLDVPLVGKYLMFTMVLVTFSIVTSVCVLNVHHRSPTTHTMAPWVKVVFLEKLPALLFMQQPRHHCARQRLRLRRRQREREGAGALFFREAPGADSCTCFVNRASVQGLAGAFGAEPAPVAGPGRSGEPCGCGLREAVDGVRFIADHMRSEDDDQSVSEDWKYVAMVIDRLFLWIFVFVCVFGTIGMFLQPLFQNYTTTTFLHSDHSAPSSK
UniProt P09483, sequence (whole entry, looked up): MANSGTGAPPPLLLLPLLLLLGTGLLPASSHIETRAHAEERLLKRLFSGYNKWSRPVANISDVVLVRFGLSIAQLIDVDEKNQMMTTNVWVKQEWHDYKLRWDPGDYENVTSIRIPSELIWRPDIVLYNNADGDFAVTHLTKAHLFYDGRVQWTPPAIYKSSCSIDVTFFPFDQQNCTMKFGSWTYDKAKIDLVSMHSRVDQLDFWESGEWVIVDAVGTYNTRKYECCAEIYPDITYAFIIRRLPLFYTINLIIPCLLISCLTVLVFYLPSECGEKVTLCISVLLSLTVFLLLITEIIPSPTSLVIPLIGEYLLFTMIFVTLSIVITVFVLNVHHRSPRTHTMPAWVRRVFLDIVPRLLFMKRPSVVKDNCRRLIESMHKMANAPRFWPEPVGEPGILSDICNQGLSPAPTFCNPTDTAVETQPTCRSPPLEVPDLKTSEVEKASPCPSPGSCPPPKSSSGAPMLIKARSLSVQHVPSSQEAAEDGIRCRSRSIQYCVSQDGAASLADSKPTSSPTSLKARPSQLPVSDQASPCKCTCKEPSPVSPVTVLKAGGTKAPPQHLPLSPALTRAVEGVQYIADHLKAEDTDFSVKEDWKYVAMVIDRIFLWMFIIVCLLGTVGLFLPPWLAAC
UniProt P12390, sequence (whole entry, looked up): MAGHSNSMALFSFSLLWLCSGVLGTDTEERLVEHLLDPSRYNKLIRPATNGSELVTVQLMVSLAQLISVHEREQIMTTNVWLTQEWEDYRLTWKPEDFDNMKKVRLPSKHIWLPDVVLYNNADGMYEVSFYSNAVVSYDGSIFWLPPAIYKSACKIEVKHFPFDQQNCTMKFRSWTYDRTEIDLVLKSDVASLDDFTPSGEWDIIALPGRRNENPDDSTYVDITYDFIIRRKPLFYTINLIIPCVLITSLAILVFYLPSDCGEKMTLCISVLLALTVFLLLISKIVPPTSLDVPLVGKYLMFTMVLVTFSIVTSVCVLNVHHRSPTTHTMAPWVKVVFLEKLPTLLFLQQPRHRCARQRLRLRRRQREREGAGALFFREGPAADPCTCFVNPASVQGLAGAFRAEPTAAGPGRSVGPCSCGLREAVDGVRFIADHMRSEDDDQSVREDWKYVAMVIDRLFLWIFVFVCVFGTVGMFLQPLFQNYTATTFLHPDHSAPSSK
UniProt P43681, sequence (whole entry, looked up): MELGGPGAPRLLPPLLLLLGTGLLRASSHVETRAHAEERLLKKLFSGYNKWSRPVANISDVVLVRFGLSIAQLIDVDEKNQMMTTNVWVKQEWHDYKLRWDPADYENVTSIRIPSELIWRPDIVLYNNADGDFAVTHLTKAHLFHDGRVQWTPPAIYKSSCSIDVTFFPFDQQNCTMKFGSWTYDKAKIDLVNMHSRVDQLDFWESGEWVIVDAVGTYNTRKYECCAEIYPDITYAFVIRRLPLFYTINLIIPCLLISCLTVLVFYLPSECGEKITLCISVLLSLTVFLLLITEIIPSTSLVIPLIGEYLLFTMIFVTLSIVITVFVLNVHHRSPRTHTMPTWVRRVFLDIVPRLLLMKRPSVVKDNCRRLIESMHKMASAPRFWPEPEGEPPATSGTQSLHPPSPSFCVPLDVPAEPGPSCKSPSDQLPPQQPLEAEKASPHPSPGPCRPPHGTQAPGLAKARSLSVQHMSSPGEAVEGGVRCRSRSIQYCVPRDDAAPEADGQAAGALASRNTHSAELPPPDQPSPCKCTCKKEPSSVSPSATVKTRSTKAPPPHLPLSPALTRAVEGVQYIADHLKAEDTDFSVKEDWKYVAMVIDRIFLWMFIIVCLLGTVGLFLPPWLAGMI
UniProt P28072, sequence (whole entry, looked up): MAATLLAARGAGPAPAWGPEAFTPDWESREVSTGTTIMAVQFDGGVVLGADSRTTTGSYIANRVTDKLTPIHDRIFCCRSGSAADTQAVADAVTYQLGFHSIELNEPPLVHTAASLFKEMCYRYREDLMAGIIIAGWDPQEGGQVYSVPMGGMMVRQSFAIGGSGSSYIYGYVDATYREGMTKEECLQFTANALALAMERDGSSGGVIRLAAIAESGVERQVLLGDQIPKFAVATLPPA
UniProt Q9NRG4, sequence (whole entry, looked up): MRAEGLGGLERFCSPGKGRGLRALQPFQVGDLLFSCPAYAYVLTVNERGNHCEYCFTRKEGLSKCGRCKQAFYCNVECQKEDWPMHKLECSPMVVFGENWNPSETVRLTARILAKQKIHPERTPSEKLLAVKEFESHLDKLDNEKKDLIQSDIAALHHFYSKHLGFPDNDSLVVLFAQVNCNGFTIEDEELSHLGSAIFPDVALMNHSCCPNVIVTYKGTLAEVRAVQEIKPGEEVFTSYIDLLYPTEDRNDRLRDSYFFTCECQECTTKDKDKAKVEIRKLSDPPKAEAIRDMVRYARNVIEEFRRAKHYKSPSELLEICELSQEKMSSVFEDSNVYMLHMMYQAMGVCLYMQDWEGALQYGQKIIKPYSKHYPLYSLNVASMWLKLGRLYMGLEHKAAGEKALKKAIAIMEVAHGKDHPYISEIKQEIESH

SMILES | tested on | test | test system | setting | endpoint | result
Nc1ncnc2c1c(-c1cnc3[nH]ccc3c1)nn2C1CCCC1 | Serine/threonine-protein kinase 24 (STK24, Homo sapiens, UniProt Q9Y6E0) | enzyme activity, inhibitor, radiometric | – | – | IC50 | 86 nM
CNCCCNC(=O)O[C@H]1CC[C@@]2(C)[C@H](CC[C@@H]3[C@@H]2CC[C@]2(C)[C@@H](c4ccc(=O)oc4)CC[C@]32O)C1 | Sodium/potassium-transporting ATPase subunit alpha-1 (atp1a1, Xenopus laevis, UniProt Q92123) | Na+,K+ pump current, inhibitor, two-electrode voltage clamp | uninjected Xenopus laevis oocytes | -60 mV holding | IC50 | ~100 nM and 101 nM
C[C@H]1CNCCc2ccc(Cl)cc21 | – | – | male Sprague-Dawley rat, plasma | subcutaneous, 0.5 mg/kg, single dose | AUC(0-inf) | 33.4 ng·h/mL
CN1C(=O)[C@]23SS[C@@]1(C)C(=O)N2[C@H]1Nc2ccccc2[C@@]1([C@@]12c4ccccc4N[C@@H]1N1C(=O)[C@@]4(C)SS[C@]1(C(=O)N4C)[C@H]2O)[C@@H]3O | N-lysine methyltransferase SMYD2 (SMYD2, Homo sapiens, UniProt Q9NRG4) | enzyme activity, inhibitor, radiometric | – | – | IC50 | > 10000 nM
Cc1cccc(C)c1OCC(=O)N[C@@H](Cc1ccccc1)[C@@H](O)C[C@H](Cc1ccccc1)NC(=O)[C@H](C(C)C)N1CCCNC1=O | Replicase polyprotein 1ab, main protease (Feline coronavirus, UniProt Q98VG9) | enzyme activity, inhibitor, FRET | – | – | IC50 | 225000 nM
CC(=O)Nc1ccc2ccn(-c3cc(Nc4ccccc4)n4ncc(C#N)c4n3)c2c1 | Casein kinase II subunit alpha' (CSNK2A2, Homo sapiens, UniProt P19784) | target engagement in cells, BRET | – | – | IC50 | 25.1 nM
C=C(NC(=O)C(=C)NC(=O)c1csc(C2=N[C@@H]3c4csc(n4)[C@H]4NC(=O)c5csc(n5)[C@H]([C@](C)(O)[C@@H](C)O)NC(=O)[C@H]5CSC(=N5)/C(=C/C)NC(=O)[C@H]([C@@H](C)O)NC(=O)c5csc(n5)[C@]3(CC2)NC(=O)[C@H](C)NC(=O)C(=C)NC(=O)[C@H](C)NC(=O)[C@H]([C@@H](C)CC)N[C@@H]2C=Cc3c([C@H](C)O)cc(nc3[C@H]2O)C(=O)O[C@@H]4C)n1)C(N)=O | Proteasome subunit beta type-6 (PSMB6, Homo sapiens, UniProt P28072) | caspase-like activity, inhibitor | purified human 20S proteasome | 37 °C, 15 min preincubation, added: Ac-Nle-Pro-Nle-Asp-AMC | IC50 | 590 ± 60 nM
Fc1c(F)c(F)c(F)c(F)c1F | Neuronal acetylcholine receptor; alpha4/beta2 (Homo sapiens, UniProt P17787+P43681) | ion current, inhibitor, two-electrode voltage clamp | Xenopus oocytes | added: ACh 1 mM | IC50 | 0.045 atm
CN1CCCC1COc1ccccn1 (stereo not shown) | Neuronal acetylcholine receptor; alpha4/beta2 (Rattus norvegicus, UniProt P09483+P12390) | ligand displacement, radioligand | – | cell membranes | IC50 | 323000 nM
C[n+]1cc2c3c(ccc2c2ccc4cc5c(cc4c21)OCO5)OCO3 | sfp | inhibitor | – | – | IC50 | 10000 ± 1000 nM
CN[C@@](C)(C[18F])C(=O)O | MDA-MB-468 tumour model | – | host not given, pancreas | 1 h, tumour-bearing | tracer uptake | 27 %ID/g
COc1ccc(NC(=O)N2CCCCN3[C@H](CN)[C@H](c4ccc(C#Cc5ccccc5)cc4)[C@@H]3C2)cc1 | Phenylalanine--tRNA ligase alpha subunit (Plasmodium falciparum, UniProt Q8I246) | aminoacylation activity, inhibitor | – | – | IC50 | 45 nM and 46 nM
CC(C)(COP(=O)(O)OP(=O)(O)OC[C@H]1O[C@@H](n2cnc3c(N)ncnc32)[C@H](O)[C@@H]1OP(=O)(O)O)[C@@H](O)C(=O)NCCC(=O)NCCS | sfp | – | – | – | IC50 | 4200 nM

For quick reference, copied from above:
SMILES | tested on | test | test system | setting | endpoint | result
Nc1ncnc2c1c(-c1cnc3[nH]ccc3c1)nn2C1CCCC1 | Serine/threonine-protein kinase 24 (STK24, Homo sapiens, UniProt Q9Y6E0) | enzyme activity, inhibitor, radiometric | – | – | IC50 | 86 nM
CN1CCCC1COc1ccccn1 (stereo not shown) | Neuronal acetylcholine receptor; alpha4/beta2 (Rattus norvegicus, UniProt P09483+P12390) | ligand displacement, radioligand | – | cell membranes | IC50 | 323000 nM
